Results pooled from the literature.
Cell line: THP-1

| Compound | assay | system | conditions | how to read | quantity | value |
| --- | --- | --- | --- | --- | --- | --- |
| COc1cc(O)cc(O)c1C(=O)/C=C/c1ccccc1 | antioxidant effect, OPT fluorometric glutathione, item: GSH/(GSH + GSSG) | cell extract |  | reference: 1 = all glutathione reduced, higher = more antioxidant | Emax of redox index | 0.84 |
| COc1cccc(C2Nc3ccccc3C3=[O+][Cu-2]4([Cl])[O]c5c(cccc5OC)C=[N+]4N32)c1O (centres unmarked) | cell growth or viability, CCK-8 |  |  |  | IC50 | 200 nM |
| Nc1nc2c(ncn2[C@@H]2O[C@@H]3COP(=O)(O)O[C@H]4[C@@H](F)[C@H](n5cnc6c(N)ncnc65)O[C@@H]4CSP(=O)(O)O[C@@H]2[C@@H]3O)c(=O)[nH]1 | item: CXCL10 |  | 10 µM, 24 h | reference: untreated | mRNA level | ~100 fold |
| O=[N+]([O-])c1ccc2c(c1)C=[N+]1N3C(=[O+][Cu-2]1([Cl])[O]2)c1ccccc1NC3c1cc([N+](=O)[O-])ccc1O (centres unmarked) | cell growth or viability, CCK-8 |  |  |  | IC50 | 300 nM |
| CC1CC(=O)N(CCCN)N=C1c1ccc(NC(=O)N2Cc3ccncc3C2)cc1 (centres unmarked) | cell growth or viability, ATP luminescence |  |  |  | IC50 | 1.2 nM |
| COc1cc(/C=N/N2C(=O)c3ccccc3NC2c2cc(OC)c(O)c([N+](=O)[O-])c2)cc([N+](=O)[O-])c1O (centres unmarked) | cell growth or viability, CCK-8 |  | 24 h |  | IC50 | > 50000 nM |
| CC1CC(=O)NN=C1c1ccc(NC(=O)N2Cc3ccncc3C2)cc1 (centres unmarked) | cell growth or viability, ATP luminescence |  |  |  | IC50 | 0.47 nM |
| CCOC(=O)C1=C(C)NC(=O)N[C@@H]1/C=C/c1ccc(OC)cc1 | cell growth or viability, MTT |  | 24 h |  | IC50 | 13100 nM |
| CCOC(=O)c1c(C(=O)OC)cn(CC(c2cn(C)c3ccccc23)c2cn(C)c3ccccc23)c1C | cell growth or viability, MTS |  | 200 µM, 72 h |  | inhibition | 2% |
| CC(C)C[C@H](NC(=O)[C@H](CO)NC(=O)[C@H](CCCNC(=N)N)NC(=O)[C@H](CCCCN)NC(=O)[C@@H](NC(=O)[C@@H](NC(=O)CNC(=O)[C@H](CCCNC(=N)N)NC(=O)[C@H](Cc1c[nH]cn1)NC(=O)[C@H](Cc1c[nH]c2ccccc12)NC(=O)[C@H](Cc1ccccc1)NC(=O)[C@H](Cc1c[nH]cn1)NC(=O)[C@H](Cc1ccc(O)cc1)NC(=O)[C@@H](N)Cc1ccc(O)cc1)C(C)C)[C@@H](C)O)C(=O)N[C@@H](CO)C(=O)N1CCC[C@H]1C(=O)N[C@@H](Cc1c[nH]cn1)C(=O)N[C@@H](CCCNC(=N)N)C(=O)N1CCC[C@H]1C(=O)N[C@@H](CCCNC(=N)N)C(=O)N[C@@H](Cc1c[nH]cn1)C(=O)N[C@@H](CO)C(=O)N[C@@H](CCCNC(=N)N)C(=O)O | TNF-α secretion, ELISA |  | 30 µM, 4 to 12 h, together with: LPS |  | inhibition | 50% |
| COc1cc(/C=N/N2C(=O)c3ccccc3NC2c2ccc(O)c(OC)c2)ccc1O (centres unmarked) | cell growth or viability, CCK-8 |  | 24 h |  | IC50 | > 50000 nM |
| CCNC(=O)Nc1ccc(S(=O)(=O)Oc2ccccc2CC)cc1 | cell growth or viability, MTT |  | 48 h |  | IC50 | 4000 nM |
| CC1CC(=O)N(CCCCCCN)N=C1c1ccc(NC(=O)N2Cc3ccncc3C2)cc1 (centres unmarked) | cell growth or viability, ATP luminescence |  |  |  | IC50 | 0.0045 nM |
| COc1ccc(-c2cc(=O)c3c(O)c(OC)c(O)c(OC)c3o2)cc1O | antioxidant effect, OPT fluorometric glutathione, item: GSH/(GSH + GSSG) | cell extract |  | reference: 1 = all glutathione reduced, higher = more antioxidant | Emax of redox index | 0.95 |
| C(=C/c1ccccc1)/c1ccccc1 | apoptosis, item: caspase-3 activity |  | 24 h, lowest dose with significant induction | reference: vehicle | lowest effective concentration | 50 µM |
| O=C1c2ccccc2NC(c2ccc([N+](=O)[O-])cc2)N1/N=C/c1ccc([N+](=O)[O-])cc1 (centres unmarked) | cell growth or viability, CCK-8 |  | 24 h |  | IC50 | > 50000 nM |
| CC(C)C[C@@H]1NC(=O)[C@H](CC(C)C)NC(=O)[C@H](Cc2ccccc2)NC(=O)[C@@H]2CSSC[C@@H](C(=O)O)NC(=O)[C@H](CSSC[C@H](N)C(=O)N3CCC[C@H]3C(=O)N2)NC(=O)CNC1=O | cell adhesion |  | together with: von Willebrand factor |  | IC50 | ~20000 nM |
